# Assay results pooled from the literature.
# Every numbered part comes from another study and shows a few of its results, in no order.

# Set 1
# Target: Interferon regulatory factor 7, full length, phosphomimetic (IRF7, Homo sapiens, UniProt Q92985, residues 1-503, S101K/S471D/S472D/S475D/S476D/S477D/S483D/S484D/S487D)
# Technique: protein-binding microarray
# Molecule type: double-stranded DNA, one strand shown
# Medium: in vitro
# Tested at: 250 nM
# Notes: 60-bp whole probe
# Added: salmon DNA 0.4 mg/ml
# Baseline: random background probes
# Direction: higher = stronger binding
# Shared flanks, not repeated: GCCTAGCAC … GTCTTGATTCGCTTGACGCTGCTG
# Construct (chain): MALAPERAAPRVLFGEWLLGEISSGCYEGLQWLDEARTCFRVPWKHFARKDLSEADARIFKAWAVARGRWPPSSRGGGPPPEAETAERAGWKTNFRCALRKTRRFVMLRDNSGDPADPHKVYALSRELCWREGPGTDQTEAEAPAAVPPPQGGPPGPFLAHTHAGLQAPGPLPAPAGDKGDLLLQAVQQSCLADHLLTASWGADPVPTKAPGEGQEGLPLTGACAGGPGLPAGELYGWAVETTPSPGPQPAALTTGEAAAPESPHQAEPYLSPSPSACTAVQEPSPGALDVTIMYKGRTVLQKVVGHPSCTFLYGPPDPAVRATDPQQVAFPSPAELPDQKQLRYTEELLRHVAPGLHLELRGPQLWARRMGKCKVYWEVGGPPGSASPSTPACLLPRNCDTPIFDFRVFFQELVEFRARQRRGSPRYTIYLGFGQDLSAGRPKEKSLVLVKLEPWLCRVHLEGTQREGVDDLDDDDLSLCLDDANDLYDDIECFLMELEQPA
Sequence,log fluorescence [z-score]
ATTGCTTCCTCTTTCTCTGCGTGCTAG,1.16
TCATTAATGAAAATTCTAACTGTGCTA,0.381
TCAGATATCTTTTTCCTACTGTGCTAG,1.05
AGGGCGGCTGAGTCAGCACAGTGCTAG,-1.16
TCAGGTTTCTATATTTGACTGTGCTAG,3.37
GACGATTTCAGACTGGCGACGTGCTAG,0.00415
TTGCTTCCCAATTCTCTTTTCGTGCTA,2.32
TTAGGTCTCCTTATCCTATAGTGCTAG,0.799
TTAGATTTCAGTTTGGATTAGTGCTAG,1.28
TTAGGTCTCCTACTGCTTTTGTGCTAG,-0.235
GACGGTTTCCTTGTCCTGACGTGCTAG,1.28
TTTGATTTCAGTTTCGATTAGTGCTAG,9.09
CCCGCTTTTTTTTTTTTTTTGTGCTAG,0.569
GAGGATTTCGGGTTTCGAGACGTGCTA,3.44
GACGGTTTCGGTCTCGGGCCGTGCTAG,6.78
CCTTTTTTGTTGTTTTTTGGGTGCTAG,1.49
TTAGAACTGAGTATCGATCAGTGCTAG,-0.112
TCATTTTTTGGTTTCTGACTGTGCTAG,2.09
GACGGACTGGACTATCGGGTCGTGCTA,-0.523
GACGGTCTCGGACTGGGGAAGTGCTAG,0.177
TTAGGTTTCGGTCTCGGTTGGTGCTAG,8.12
TCACCCTTGCTTTCCAAACTGTGCTAG,0.429
AGTAGCTGGGATTACAGGCAGTGCTAG,-0.863
TTAGGTTTCGGTTGCGGTTAGTGCTAG,9.15
GACGGTCTGGGGTTTCGGGACGTGCTA,0.591

# Set 2
# Target: RNA binding protein fox-1 homolog 2, RRM domain, GST-SBP tag (RBFOX2, Homo sapiens, UniProt O43251-10, residues 100-194)
# Technique: RNA Bind-n-Seq
# Molecule type: RNA
# Medium: in vitro
# Tested at: 365 nM
# Notes: natural RNA segment, single round, ends assumed
# Baseline: no-protein control
# Direction: higher = stronger binding
# Shared flanks, not repeated: GGGAGUUCUACAGUCCGACGAUC … UGGAAUUCUCGGGUGCCAA
# Residues (chain): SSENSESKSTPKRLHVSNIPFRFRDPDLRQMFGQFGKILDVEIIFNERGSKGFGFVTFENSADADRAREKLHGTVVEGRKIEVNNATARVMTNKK
Sequence,RBNS enrichment (R)
UACACUUUUUUGGUCUGUUUUUGUGCUAGACUGUAAGUUCCUUGGGGGCAGGGCCUUUGUCUGUCUCAUCUCUGUAUUCCCAAAUGCCUAACAGUACAGAGCCAUGACUC,0.417
UGUGGCCUGGAGUCGAGGUCUUGGCCAGGACAUAACAAGCUGUGGUCUGGGGUAACAGCCUCUUCCCAGCACCCACCUGCCAGCCCUGCUUGCCUGGCCCUGUCCUGGAC,0.454
UCCUCAGAGUACCUAUAAACACUUACCCCUUCCUAGAUGGCAUUAAACUCCAUUCUAGAUGUUAGGAAAGUUGUAACAUGCACACUCACUCAGCCGAUCAGGAAUCAUUG,0.273
GCCAAUGUGGGCUGGAACAACUCCACCUUCGCCUAGAGCCGCAGGGACCCACGCUGUCUGCGCUGGCUCCACCCGGGAACCCGCCGCACGCUGUGUUCUAGGCCCGCCCA,2.15
GUAUGUUAAUAAUGUAUAAAAUGGCUAUCUUGUAAGCGUGCUGUCCUGGUACUAGUGUAGCGACUUUUUUUCUCCUCUUUCUUCUAGUACAUAUUGAUAGGUAUAACAUA,1.08
ACGUGUCUGCCAGGGCUCAAGUUUUAUUGUUCUUGCCCCACUCCCACCCCAUGUUACAGCAAGACUGGUCUUACAGAGUGAGUACUCUGGGUGAUGCUUACGGGAAGGAG,2
GAGCAGAACAGGUUUGUCAUCUCCGCAAGGCCAGAAAGUGAUCACAAAAAGAGGCAGAUGAUAGACACUGGGGUAGGGUCAUACCACAGGGAAAUACCUUUCCUGGGCUU,0.379
CAUUUCUACCUCCAAAGUCAUCAGAGCCUGCUUGUCCACAUCUGGUCCAGGUGGGAGUACAAGGAAGGCUGCUUCUACACCCAUGAGCACAAAUACGUCUGUGUGGGACA,0.304
UUUAUGUAAGCAUGAAACACAGGCAGUAUGAGAGAAAGCAAGGCCCGUCAUGCUGUCCGUACACUACGUAUGCUGUAGAGCCAUUUUGUAUGUUGUGUAAAACAAAAAGC,23.3
CUCCCAUGCCAGAACAGAGGAUGGCAGUCUGUUUCAAUAAGACACUGUGUCCUUGGUGUUGGUUCUGAUUAAGACUCACUGAGAUCCAGUGCUCUUGAGCUGGGUCUCAG,0.204
AGGUGUAAAUAAAUUCAUAAUUCAAACAGCCAGUAUAUAUGCAUAUAUGGGUGUUACAUUGCAAAAAUCUCUAUCUUUGUUCUAUUCACAUGCUUAAAGAAGUAAGAAAU,0.883
CCCACCCCGUGCAGCCCAUGCUGAGGCUGCAGUGGUGUCGUGGGUGUUACGUGCAGGAACGUGGAGACCCUGACGUGGGCUCACUGCGUUUGGUUUUCUUUUCAGAACUU,0.284

# Set 3
# Target: Ras GTPase-activating protein-binding protein 1, C-terminal RGG region (G3BP1, Homo sapiens, UniProt Q13283)
# UniProt Q13283, sequence (whole entry, looked up): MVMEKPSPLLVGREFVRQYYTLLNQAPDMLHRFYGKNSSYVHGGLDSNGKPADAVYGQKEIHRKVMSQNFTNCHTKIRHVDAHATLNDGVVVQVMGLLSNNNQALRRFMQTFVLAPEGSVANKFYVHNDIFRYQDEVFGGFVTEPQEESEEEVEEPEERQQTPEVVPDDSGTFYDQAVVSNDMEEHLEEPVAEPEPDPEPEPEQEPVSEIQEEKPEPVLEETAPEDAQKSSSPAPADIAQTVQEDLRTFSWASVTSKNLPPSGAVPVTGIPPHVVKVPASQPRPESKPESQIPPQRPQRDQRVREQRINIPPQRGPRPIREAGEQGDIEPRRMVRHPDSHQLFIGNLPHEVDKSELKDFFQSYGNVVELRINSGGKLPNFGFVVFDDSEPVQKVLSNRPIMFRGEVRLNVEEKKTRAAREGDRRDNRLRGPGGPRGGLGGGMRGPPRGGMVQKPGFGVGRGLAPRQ
# Technique: RNA Bind-n-Seq
# Molecule type: RNA
# Medium: in vitro
# Tested at: 1 µM
# Notes: whole 134-nt RNA, ends assumed
# Added: 150 mM KCl
# Baseline: input library
# Direction: higher = stronger binding
# Shared flanks, not repeated: GGGAGUUCUACAGUCCGACGAUC … UGGAAUUCUCGGGUGUCAAGG
Sequence,log2 enrichment
AGUCCUGUGCUACACAUCGUAUGUACCGAAUCGGGGCCCCGGGGCCCCGGGCCCCGGAAAGUAUUAUGUUACGCCGUUCGGAUCUGCACU,0.475
UGGGACGUGGAUUUUGUUUAUUUUUUUAGCUCAUUUCCAGGGGUGGGAAUUUUUUUUUAAUAUGUGUCAUGAAUAAAGUUGUUUUUGAAA,4.17
UCCUGUGCUACACAUCGUAUGUACCGAAUCGGGUUUUUGGGGUUUUUGGGGUUUUUGGGAAAGUAUUAUGUUACGCCGUUCGGAUCUGCA,0.566
GCAGGAAGUAAAAACUAAUGGAAAUGCUUCGGAUAGUGGCAGGGGUGGGGGUUGCUAAGGAAAGGGUGGGAUGGGAGUGGGUAAAGAGUU,1.81
ACCAUGCAGGUGGGCAUCUUUGGGAAGUGGGGCAAGGGGGGGAUAGGGAGGGGGGUAACACUUAAAGAACAGGUGGUCCCAGGUCGUUUC,-1.05
GCAGGAGGUAAAAACAAAUGGAAAUGCUUCGGAUAGUGGCAGGGGUGGGGGUUGCUAAGGAAAGGGUGGGAUGGGAGUGGGUAAAGAGUU,1.76
AAGUCCUGUGCUACACAUCGUAUGUACCGAAUCGGGUUUUUGGGAGGGUUUUUGGGAAAGUAUUAUGUUACGCCGUUCGGAUCUGCACUU,0.896
UUGCUUCAAGAAGAUCCCUAAGCUGUAGAACAUUUUAACGUUGAUGCCACAACGCAGAUUGAUGCCUUGUAGAUGGAGCUUGCAGAUGGA,-0.817
CUGUGCUACACAUCGUAUGUACCGAAUCGGGGAAAAAGGGGAAAAAAAGGGGAAAAAGGGGAAAGUAUUAUGUUACGCCGUUCGGAUCUG,0.0555
CAAGUCCUGUGCUACACAUCGUAUGUACCGAAUCGGAAAAGGAAAAGGGAAAAGGGAAAGUAUUAUGUUACGCCGUUCGGAUCUGCACUU,-2
UGGCCCUAGUGGCAUGCGGGGAGGAAGAGGUGGCCUCAUGGAUCGUGGUGGUCCCGGUGGAAUGUUCAGAGGUGGCCGUGGUGGAGACAG,2.2
UGGGAGGUGGAUUUUGUUUAUUUUUUUAGCUCAUUUCCAGGGGUGGGAAUUUUUUUUUAAUAUGUGUCAUGAAUAAAGUUGUUUUUGAAG,3.73
CAAAAACAACACGCACCCACACAGACACAGAGGGAAGGGGUUGGGAUGGGGACAGGGUGCACAGCAGGGCGGGGUAGGACCCCAGCCCCU,-0.627
GUCCUGUGCUACACAUCGUAUGUACCGAAUCGGGGAAAAGGGGAAAAGGGAAAAGGGGAAAGUAUUAUGUUACGCCGUUCGGAUCUGCAC,0.422

# Set 4
# Target: RING finger protein unkempt homolog, zinc fingers 1-6, GST-SBP tag (UNK, Homo sapiens, UniProt Q9C0B0, residues 30-357)
# UniProt Q9C0B0, sequence (30-357, looked up): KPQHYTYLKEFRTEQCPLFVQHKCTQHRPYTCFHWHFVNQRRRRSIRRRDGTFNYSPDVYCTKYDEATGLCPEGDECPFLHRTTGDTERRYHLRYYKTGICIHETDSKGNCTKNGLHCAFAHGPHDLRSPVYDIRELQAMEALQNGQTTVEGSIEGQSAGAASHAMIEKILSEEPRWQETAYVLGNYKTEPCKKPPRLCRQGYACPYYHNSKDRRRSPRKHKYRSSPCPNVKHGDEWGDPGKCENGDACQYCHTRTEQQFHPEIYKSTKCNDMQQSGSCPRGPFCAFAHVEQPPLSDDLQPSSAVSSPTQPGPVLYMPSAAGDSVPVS
# Technique: RNA Bind-n-Seq
# Molecule type: RNA
# Medium: in vitro
# Tested at: not given
# Notes: RNA with constant flanks, human-mouse chimeric sites, ends assumed
# Baseline: input RNA pool
# Direction: higher = stronger binding
# Shared flanks, not repeated: GGGAGUUCUACAGUCCGACGAUC … CAACAGAGGAUUGAGCAUCA
Sequence,bound/input enrichment [ratio]
AACAGAUUGUCUUUAAGCAUUCCAAGCGAGAAUGCUGGGGUGAUCAUUGUUGCCCAUAUAUAGUAAUACUGAGCUUUAAUGCUGUUCCAUGUUACAUCUUUCCUUCAUUGCAUAUUUGUU,0.694
CGCUGGCGUUGAACUGUGGACUCUGAUGGCCUCCAUCUCUCAGGCACGUGUGCCUUCUCUUAGUCCCUUCUGGGUUGAUGUUAUGAAUCUCAGUACUGUGGUUUGAAAGCACCAGCUUUG,0.555
CUGGCCUGGCCCUCCCCAGGGGCCUCCUUUCGUAUAGUCACUGCUUCUGCAUCAGAUACUUUCAGCUGCAACUCCCUGCAGGGUGGGGCACCUAUCUCAGGCAGAAGGUUUUGGUACCCU,0.193
GACAGUGAAGAAGAGAUUAGAGAAGCAUUCCGUGUGUUUGAUAAGGAUGGCAAUGGCUAUAUUAGUGCAGCAGAGCUUCGCCAUGUGAUGACAAACCUUGGAGAGAAGUUAACAGAUGAA,2.24
UUCCCAACCUCCCGCCUCACCCCACCCCCGCUUUUUGGAAAGUUUUUGGCGUUUCUUUUCCUUCCCCAUACAAAGUGAUUACAGUUUAGAGUCUAUGGGUCUAUCGAAGGGCUUGACGGA,0.789
AGCACAACACCAGCUAAGCUAAGAAAUCCUUGUACAAGUGAACAAAACUGCACCAGCCCAUUUAGCUACAAAAAUGUGCUUAGUCUUACUGACAGAGGAGAGUUUUUCAAUGAACUUGUU,1.02
GUAUACGGUUAUCGAGGAAAGGACUGUAGAGCGAAUGUAUACCUGCUUCCGACCGGGGAGAUAGUUUAUUUUAUCGCCUCAGUGGUAGUCCUGUUUAAUUAUGAGGAGAGAACUCAGCGA,0.379
UUGGAAGGACCAGAGCCUAAUCAACUGAAACCACUAGUCAUACAGGCUAUGCCCACCCUAAUAGAACUAAUGAAAGACCCCAGUGUAGUUGUUCGAGACACAACAGCAUGGACUGUAGGC,1.12
UCUUUAAAAAAAAAAUUACCUUUUCUGACAGUGCUUUCCCUCCCAUAGGUCCAGGUUCAAGCUCAAAGAGCAAAGGCUUUGCACGGAGCUCAAACAUCUGAUGAAGAUUUUUGAGACAGA,0.483
UACUACUAUGAUGGUGAUAUUGGCAAUUAUUAUUAUGGCCAGGGUCAUCCCAUGAAGCCUCAUAGAAUCCGGAUGACCCAUAACUUGCUGCUAAAUUAUGGCUUAUACCGAAAAAUGGAA,0.219
GGACAUCUGUCAAAUUGUAUUUCCCGUGUGAAACAAGUGAGCACUUUGAUACACUUCAUCUGCUUGUACAUCUGUAUGAUAGAGAAAUGUAAAUAUGUUAAUCCAAGCAAUGUGUCACUU,0.254

# A few entries again (set 3):
Sequence,log2 enrichment
AAGUCCUGUGCUACACAUCGUAUGUACCGAAUCGGGUUUUUGGGAGGGUUUUUGGGAAAGUAUUAUGUUACGCCGUUCGGAUCUGCACUU,0.896
ACCAUGCAGGUGGGCAUCUUUGGGAAGUGGGGCAAGGGGGGGAUAGGGAGGGGGGUAACACUUAAAGAACAGGUGGUCCCAGGUCGUUUC,-1.05
GCAGGAAGUAAAAACUAAUGGAAAUGCUUCGGAUAGUGGCAGGGGUGGGGGUUGCUAAGGAAAGGGUGGGAUGGGAGUGGGUAAAGAGUU,1.81
UCCUGUGCUACACAUCGUAUGUACCGAAUCGGGUUUUUGGGGUUUUUGGGGUUUUUGGGAAAGUAUUAUGUUACGCCGUUCGGAUCUGCA,0.566
CAAAAACAACACGCACCCACACAGACACAGAGGGAAGGGGUUGGGAUGGGGACAGGGUGCACAGCAGGGCGGGGUAGGACCCCAGCCCCU,-0.627
